Experimental data from different studies.
Numbered parts are unrelated; each lists some results of a single study. Positions count from the first letter of the parent shown.
Chain of UniProt P17948 (whole entry, looked up): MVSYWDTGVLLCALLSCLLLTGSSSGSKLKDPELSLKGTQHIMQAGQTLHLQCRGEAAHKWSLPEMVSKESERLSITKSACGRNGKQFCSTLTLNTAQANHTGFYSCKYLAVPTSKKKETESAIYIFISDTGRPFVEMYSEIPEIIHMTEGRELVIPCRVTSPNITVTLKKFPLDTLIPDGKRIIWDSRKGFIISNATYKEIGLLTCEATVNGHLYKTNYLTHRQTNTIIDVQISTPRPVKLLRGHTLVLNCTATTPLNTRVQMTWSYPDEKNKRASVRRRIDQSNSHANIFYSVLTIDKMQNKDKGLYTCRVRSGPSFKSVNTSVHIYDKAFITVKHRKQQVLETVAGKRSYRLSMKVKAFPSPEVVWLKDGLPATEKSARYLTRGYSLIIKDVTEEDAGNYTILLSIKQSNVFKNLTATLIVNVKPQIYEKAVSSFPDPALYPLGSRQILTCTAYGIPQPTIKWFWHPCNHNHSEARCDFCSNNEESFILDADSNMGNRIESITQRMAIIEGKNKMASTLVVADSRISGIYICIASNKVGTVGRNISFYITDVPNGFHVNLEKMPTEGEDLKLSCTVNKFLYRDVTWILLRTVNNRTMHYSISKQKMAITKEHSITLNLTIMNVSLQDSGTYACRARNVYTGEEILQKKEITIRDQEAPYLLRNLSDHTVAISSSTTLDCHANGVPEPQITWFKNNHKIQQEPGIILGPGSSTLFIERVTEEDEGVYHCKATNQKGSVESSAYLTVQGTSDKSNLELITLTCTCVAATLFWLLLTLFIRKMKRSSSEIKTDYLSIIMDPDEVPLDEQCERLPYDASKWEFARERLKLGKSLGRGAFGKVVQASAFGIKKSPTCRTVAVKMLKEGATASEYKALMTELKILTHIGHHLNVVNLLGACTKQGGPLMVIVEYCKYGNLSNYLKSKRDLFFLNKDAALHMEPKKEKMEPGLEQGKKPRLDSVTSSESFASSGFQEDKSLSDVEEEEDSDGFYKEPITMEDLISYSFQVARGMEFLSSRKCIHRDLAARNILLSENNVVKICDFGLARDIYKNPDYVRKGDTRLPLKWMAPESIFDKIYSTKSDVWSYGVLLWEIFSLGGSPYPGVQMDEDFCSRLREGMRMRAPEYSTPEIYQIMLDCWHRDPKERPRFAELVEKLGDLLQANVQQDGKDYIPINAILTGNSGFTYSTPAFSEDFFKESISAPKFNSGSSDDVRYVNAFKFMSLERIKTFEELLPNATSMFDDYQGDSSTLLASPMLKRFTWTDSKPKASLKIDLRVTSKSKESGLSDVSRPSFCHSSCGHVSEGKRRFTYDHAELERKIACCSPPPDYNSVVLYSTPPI
Chain of UniProt P29317 (whole entry, looked up): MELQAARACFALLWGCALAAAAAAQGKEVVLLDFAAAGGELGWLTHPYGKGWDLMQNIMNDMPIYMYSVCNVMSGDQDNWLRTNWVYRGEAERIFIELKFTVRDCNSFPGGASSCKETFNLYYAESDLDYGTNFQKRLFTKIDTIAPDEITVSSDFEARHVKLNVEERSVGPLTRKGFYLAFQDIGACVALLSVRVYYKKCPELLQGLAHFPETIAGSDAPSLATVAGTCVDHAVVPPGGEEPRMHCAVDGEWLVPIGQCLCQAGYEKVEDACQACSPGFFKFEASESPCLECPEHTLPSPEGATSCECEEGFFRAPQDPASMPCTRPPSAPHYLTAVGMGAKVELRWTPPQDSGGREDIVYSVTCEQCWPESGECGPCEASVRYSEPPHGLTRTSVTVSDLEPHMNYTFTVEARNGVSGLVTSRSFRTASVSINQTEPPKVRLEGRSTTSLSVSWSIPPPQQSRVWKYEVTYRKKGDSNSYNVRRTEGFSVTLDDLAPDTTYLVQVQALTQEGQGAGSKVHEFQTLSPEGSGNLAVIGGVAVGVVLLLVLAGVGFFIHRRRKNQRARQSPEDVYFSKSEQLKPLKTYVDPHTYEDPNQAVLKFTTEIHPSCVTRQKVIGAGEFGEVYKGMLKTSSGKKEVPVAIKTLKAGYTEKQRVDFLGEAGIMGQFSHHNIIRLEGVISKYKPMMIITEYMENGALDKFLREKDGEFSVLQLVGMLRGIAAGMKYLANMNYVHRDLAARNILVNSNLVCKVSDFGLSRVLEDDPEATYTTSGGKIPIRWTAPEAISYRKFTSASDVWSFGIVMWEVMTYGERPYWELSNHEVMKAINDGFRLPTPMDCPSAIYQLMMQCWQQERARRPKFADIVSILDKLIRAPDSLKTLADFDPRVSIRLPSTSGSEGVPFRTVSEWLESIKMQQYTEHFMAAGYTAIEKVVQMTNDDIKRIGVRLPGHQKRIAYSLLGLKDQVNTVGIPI
Chain of UniProt Q9UBS0 (whole entry, looked up): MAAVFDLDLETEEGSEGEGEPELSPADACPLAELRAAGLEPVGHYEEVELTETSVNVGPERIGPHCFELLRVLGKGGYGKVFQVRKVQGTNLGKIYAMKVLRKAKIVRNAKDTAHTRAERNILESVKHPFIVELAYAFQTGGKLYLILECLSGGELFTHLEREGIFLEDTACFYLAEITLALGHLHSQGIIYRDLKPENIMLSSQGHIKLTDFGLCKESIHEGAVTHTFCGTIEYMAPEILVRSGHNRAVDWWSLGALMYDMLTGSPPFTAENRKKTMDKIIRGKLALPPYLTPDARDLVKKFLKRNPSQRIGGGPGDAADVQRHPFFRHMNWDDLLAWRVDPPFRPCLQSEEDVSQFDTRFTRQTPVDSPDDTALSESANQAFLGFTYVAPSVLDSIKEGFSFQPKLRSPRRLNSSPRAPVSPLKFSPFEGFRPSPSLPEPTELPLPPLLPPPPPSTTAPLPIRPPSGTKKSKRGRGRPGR
Chain of UniProt P07332 (whole entry, looked up): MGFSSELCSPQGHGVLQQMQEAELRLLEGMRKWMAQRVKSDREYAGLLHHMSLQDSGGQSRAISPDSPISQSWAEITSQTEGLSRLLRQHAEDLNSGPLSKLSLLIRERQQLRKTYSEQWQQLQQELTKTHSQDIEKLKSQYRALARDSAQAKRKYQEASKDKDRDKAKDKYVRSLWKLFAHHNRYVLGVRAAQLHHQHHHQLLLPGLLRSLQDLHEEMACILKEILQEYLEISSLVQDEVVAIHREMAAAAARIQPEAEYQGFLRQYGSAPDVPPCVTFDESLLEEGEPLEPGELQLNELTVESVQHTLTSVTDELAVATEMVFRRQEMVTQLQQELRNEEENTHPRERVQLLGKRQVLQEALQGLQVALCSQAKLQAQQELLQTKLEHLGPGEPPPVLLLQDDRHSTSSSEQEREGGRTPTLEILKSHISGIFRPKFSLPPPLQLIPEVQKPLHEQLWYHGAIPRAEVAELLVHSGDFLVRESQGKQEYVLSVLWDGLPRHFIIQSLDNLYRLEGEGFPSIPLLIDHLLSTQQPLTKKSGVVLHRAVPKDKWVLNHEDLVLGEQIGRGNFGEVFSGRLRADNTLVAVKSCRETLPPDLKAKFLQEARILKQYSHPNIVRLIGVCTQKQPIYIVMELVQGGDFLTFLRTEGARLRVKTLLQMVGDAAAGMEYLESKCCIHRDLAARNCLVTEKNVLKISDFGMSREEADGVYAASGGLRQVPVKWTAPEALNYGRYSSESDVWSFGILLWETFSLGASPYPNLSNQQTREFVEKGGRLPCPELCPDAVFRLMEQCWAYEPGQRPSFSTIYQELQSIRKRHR
Chain of UniProt P07948 (whole entry, looked up): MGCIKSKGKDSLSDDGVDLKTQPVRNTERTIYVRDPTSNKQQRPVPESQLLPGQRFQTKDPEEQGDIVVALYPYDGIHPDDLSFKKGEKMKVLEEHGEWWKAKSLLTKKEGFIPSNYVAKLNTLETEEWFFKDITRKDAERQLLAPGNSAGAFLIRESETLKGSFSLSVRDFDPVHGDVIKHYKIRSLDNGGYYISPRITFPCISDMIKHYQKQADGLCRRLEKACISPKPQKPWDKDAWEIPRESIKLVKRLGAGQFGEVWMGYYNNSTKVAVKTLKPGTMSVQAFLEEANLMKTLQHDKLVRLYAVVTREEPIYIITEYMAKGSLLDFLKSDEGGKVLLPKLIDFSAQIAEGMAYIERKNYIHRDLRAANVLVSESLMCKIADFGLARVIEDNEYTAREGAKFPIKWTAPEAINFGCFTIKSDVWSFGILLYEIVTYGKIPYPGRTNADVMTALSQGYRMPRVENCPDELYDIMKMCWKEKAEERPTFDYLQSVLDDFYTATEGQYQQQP
Chain of UniProt Q9Y616 (whole entry, looked up): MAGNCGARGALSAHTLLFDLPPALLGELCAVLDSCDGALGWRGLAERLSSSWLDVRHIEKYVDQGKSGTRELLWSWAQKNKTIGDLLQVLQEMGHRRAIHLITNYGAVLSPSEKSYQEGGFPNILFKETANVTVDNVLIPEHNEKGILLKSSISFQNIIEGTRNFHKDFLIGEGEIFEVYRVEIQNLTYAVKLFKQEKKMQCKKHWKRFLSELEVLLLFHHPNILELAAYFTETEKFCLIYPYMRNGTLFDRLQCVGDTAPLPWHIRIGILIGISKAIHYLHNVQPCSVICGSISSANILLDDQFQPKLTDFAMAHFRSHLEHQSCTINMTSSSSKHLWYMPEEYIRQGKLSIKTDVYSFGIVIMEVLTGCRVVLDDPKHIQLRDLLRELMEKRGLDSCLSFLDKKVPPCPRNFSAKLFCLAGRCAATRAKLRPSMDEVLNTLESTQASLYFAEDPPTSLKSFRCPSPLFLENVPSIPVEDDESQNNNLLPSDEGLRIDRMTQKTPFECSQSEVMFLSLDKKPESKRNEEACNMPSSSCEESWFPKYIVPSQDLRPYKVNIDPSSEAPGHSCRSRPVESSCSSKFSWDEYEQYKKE
Chain of UniProt Q00535 (whole entry, looked up): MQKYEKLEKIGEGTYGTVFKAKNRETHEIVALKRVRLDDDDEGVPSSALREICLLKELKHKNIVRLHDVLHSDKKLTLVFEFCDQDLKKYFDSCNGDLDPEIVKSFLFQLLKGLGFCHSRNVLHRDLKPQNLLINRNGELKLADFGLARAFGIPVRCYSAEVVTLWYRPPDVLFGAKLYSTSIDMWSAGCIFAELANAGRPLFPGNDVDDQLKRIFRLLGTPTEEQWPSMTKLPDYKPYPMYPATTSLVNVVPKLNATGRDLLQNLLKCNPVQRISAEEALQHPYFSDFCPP

Set 1
Structure (SMILES): O=C1NC(c2ccccn2)Sc2ccccc21 (stereo not drawn)
Read-out: cell-free assay
Method: competition with immobilised ligand
Tested at: 1 µM
It gave 80% for remaining binding (LYN (Homo sapiens, UniProt P07948)).
It gave 77% for remaining binding (FLT3 (Homo sapiens, UniProt P36888)).
The remaining binding was 100% (FLT1 (Homo sapiens, UniProt P17948)).
It gave 100% for remaining binding (GAK (Homo sapiens, UniProt O14976)).
IRAK3 (Homo sapiens, UniProt Q9Y616) — remaining binding: 87%.
For ERBB4 (Homo sapiens, UniProt Q15303): remaining binding read 77%.
For ALK (Homo sapiens, UniProt Q9UM73, C1156Y): remaining binding read 84%.
The remaining binding was 94% (IKBKE (Homo sapiens, UniProt Q14164)).

Set 2
Structure (SMILES): Cc1ccc(NC(=O)c2ccc(CN3CCN(C)CC3)cc2)cc1Nc1nccc(-c2cccnc2)n1
Read-out: enzyme activity
Action: inhibitor
Tested at: 0.5 µM
Relative to: control
Cyclin-dependent kinase 5, with p35 (CDK5, Homo sapiens, UniProt Q00535) — remaining activity: 103%.
For RPS6KA3 (Homo sapiens, UniProt P51812): remaining activity read 101%.
It gave 101% for remaining activity (FES (Homo sapiens, UniProt P07332)).
EPHA2 (Homo sapiens, UniProt P29317) — remaining activity: 87.1%.
The remaining activity was 106% (ACVRL1 (Homo sapiens, UniProt P37023)).
The remaining activity was 105% (PAK1 (Homo sapiens, UniProt Q13153)).
IGF1R (Homo sapiens, UniProt P08069) — remaining activity: 95.7%.
The remaining activity was 103% (RPS6KB2 (Homo sapiens, UniProt Q9UBS0)).
PRKCZ (Homo sapiens, UniProt Q05513) — remaining activity: 96.3%.
ERBB2 (Homo sapiens, UniProt P04626) — remaining activity: 105%.
JAK1 (Homo sapiens, UniProt P23458) — remaining activity: 100%.
FLT1 (Homo sapiens, UniProt P17948) — remaining activity: 98.3%.
The remaining activity was 74.8% (MARK1 (Homo sapiens, UniProt Q9P0L2)).

Set 3
Target: ABI1, truncated, D143A, DHFR fusion (Arabidopsis thaliana, UniProt P49597)
Method: DHFR PCA, dose-response
Sample: yeast
Setting: Hill fit, mean, not affinity
Added: (+)-ABA, dose series
Reading: lower = more sensitive
Starting sequence: PYL1, truncated, DHFR fusion (Arabidopsis thaliana, UniProt Q8VZS8); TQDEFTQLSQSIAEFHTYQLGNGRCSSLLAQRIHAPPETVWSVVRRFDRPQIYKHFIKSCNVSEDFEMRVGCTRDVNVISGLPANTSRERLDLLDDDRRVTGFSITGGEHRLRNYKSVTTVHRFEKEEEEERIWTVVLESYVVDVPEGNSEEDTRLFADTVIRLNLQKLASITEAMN
`D144S` has an ABA EC50 of 18.3 µM.
`R113I` has an ABA EC50 of 6.41 µM.
`C60T` gave an ABA EC50 of 4.74 µM.
`N77F` has an ABA EC50 of 1.21 µM.
With `R155C` the ABA EC50 was 5.74 µM.
With `Y141M` the ABA EC50 was 530 µM.
The ABA EC50 of `M68Y` is reported as 6.9 µM.
For `W134M`, the ABA EC50 was 0.94 µM.

Further values, each from its own experiment
`CCOC(=O)[C@@H]1CSCC(=O)N[C@H](CC)C(=O)N(C)[C@@H](C)C(=O)N[C@@H](CC(C)C)C(=O)N2CCC[C@H]2C(=O)N(CC(C)C)CC(=O)N[C@@H](CC(C)C)C(=O)N(C)[C@H](C)C(=O)N[C@@H](CC(C)C)C(=O)N1C` gave a logD of 0.724 (hydrocarbon/water).

Some of these lines once more (set 3):
`C60T` gave an ABA EC50 of 4.74 µM.
`N77F` has an ABA EC50 of 1.21 µM.
With `R155C` the ABA EC50 was 5.74 µM.
With `Y141M` the ABA EC50 was 530 µM.
